Measured values of several laboratories.
Each numbered part is a random draw from the data of one study; scales do not carry over between parts.

Series 1
Target: Ras GTPase-activating protein-binding protein 1, full length (G3BP1, Homo sapiens, UniProt Q13283)
Sequence of UniProt Q13283 (whole entry, looked up): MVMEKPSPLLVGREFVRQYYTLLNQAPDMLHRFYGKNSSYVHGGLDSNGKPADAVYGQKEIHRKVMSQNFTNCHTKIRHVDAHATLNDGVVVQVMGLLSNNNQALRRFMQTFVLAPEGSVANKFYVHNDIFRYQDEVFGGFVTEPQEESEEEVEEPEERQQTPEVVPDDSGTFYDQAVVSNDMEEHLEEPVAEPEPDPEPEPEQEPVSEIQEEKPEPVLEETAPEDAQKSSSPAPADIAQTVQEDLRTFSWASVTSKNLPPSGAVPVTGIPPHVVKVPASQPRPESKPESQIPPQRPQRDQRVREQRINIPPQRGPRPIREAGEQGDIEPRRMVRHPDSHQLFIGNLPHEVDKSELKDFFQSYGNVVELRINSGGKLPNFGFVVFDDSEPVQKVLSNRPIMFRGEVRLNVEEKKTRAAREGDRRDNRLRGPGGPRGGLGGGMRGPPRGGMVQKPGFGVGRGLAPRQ
Technique: RNA Bind-n-Seq
Form: RNA
Medium: in vitro
Tested at: 200 nM
Notes: whole 134-nt RNA, ends assumed
Together with: 150 mM LiCl
Reference: input library
Reading: higher = stronger binding
Each molecule: 7-deaza-guanosine replaces G
Oligonucleotide	log2 enrichment
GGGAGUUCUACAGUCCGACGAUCCACAGACAACACGCACCCACACAGACACAGAGGGAAGGGGUUGCGAUGGGGACAGGGUGCACAGCAGGGCGGGGUAGGACCCCAGCCCCUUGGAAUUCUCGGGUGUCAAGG	-1.62
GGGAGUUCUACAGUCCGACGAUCGGUAAACGCCCUGCAGAAGAUAUGGAAGAGGAACAAGCAUUUAAAAGAUCUAGAAACACUGAUGAGAUGGUUGAAUUACGCAUUCUGCUUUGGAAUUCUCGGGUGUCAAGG	-0.682
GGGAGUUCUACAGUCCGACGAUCUUCCUCAAGUCCUGUGCUACACAUCGUAUGUACCGAAUCGGAGGAGGAGGAAAGUAUUAUGUUACGCCGUUCGGAUCUGCACUUCCAGCAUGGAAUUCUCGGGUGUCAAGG	-2.04
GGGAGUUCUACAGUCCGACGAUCUCAAGUCCUGUGCUACACAUCGUAUGUACCGAAUCGGGGUUGGGGUUGGUUGGGAAAGUAUUAUGUUACGCCGUUCGGAUCUGCACUUCCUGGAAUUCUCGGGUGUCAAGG	0.0804
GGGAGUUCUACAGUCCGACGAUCGUCCUGUGCUACACAUCGUAUGUACCGAAUCGGGUUUUUUUGGGUGGGAAAAAAAGGGAAAGUAUUAUGUUACGCCGUUCGGAUCUGCACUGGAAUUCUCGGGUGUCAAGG	-0.966
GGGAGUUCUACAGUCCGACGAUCCCUCAAGUCCUGUGCUACACAUCGUAUGUACCGAAUCGGAAAGGUUUGGUGGAAAGUAUUAUGUUACGCCGUUCGGAUCUGCACUUCCAGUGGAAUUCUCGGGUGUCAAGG	-0.492
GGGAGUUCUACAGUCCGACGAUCCACAGACAACACGCACCCACACAGACACAGAGGGAAGUGGUUGGGAUGGGGACAGGGUGCACAGCAGGGCGGGGUAGGACCCCAGCCCCUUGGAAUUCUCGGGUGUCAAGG	-1.5
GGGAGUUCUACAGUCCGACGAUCAAGUCCUGUGCUACACAUCGUAUGUACCGAAUCGGGAAAAAGGGAGGGUUUUUGGGAAAGUAUUAUGUUACGCCGUUCGGAUCUGCACUUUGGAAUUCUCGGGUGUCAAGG	-1.01

Series 2
Target: Histone acetyltransferase KAT6A, winged helix 2, GST fusion (KAT6A, Homo sapiens, UniProt Q92794, residues 85-181)
Technique: protein binding microarray
Form: double-stranded DNA, one strand shown
Medium: in vitro
Tested at: not given
Notes: 8-mer, flanks averaged, mean of 2 arrays, mostly near background
Reference: not given
Reading: higher = stronger binding
Target sequence (chain): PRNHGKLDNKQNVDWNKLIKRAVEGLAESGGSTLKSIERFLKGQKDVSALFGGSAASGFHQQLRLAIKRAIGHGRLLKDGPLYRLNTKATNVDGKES
Oligonucleotide	E-score
GAACGTCC	-0.0533
ACACTGCC	0.144
ACTCGCAT	0.0413
CCCTATAC	-0.0845
CAGTGCGC	-0.0119
CCAGAATC	-0.00079
CGATGCAA	0.0342
AGTATTCG	0.0432
CCTCCGTA	-0.145
CCATCCGG	0.116
ATATCGAT	-0.00436
AATGTCTA	-0.0306
GCCTTCCA	-0.0788
CGTTGGAG	0.0786
CACTCAAG	0.0131
TATGTCGA	-0.0293
AGTTTGGA	0.129
GCAAATCA	0.0221
CTCCGGAA	0.0162
CAATCTCC	-0.0583
TAGGAGCA	-0.0731
TGCTCGAA	0.0759
CTTGCACC	-0.0201
CGTAGTAA	-0.209

Series 3
Target: Centromere-binding protein 1, full length, N-terminal tag (CBF1, Saccharomyces cerevisiae, UniProt P17106, residues 1-351)
Sequence of UniProt P17106 (whole entry, looked up): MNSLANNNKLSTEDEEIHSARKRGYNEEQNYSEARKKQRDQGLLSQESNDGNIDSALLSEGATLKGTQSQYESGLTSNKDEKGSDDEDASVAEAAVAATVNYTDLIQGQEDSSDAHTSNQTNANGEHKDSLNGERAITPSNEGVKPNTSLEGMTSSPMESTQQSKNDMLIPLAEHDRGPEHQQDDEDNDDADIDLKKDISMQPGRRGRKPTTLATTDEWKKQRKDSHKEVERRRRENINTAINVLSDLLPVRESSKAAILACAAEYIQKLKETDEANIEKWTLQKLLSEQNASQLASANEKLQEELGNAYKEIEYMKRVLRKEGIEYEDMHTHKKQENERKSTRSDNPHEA
Technique: protein-binding microarray
Form: double-stranded DNA, one strand shown
Medium: in vitro
Tested at: 0.8 µM
Notes: whole 60-bp probe, no competitor
Reading: higher = stronger binding
Oligonucleotide	fluorescence intensity
CCTAACTACTATAGTGCTGATGTATAGCTTCGTACAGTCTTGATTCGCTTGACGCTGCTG	508 a.u.
GAAAACTTTATTTGTCACCTTTTTGCTGGTATTTAGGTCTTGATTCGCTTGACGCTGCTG	528 a.u.
CTATCGTGTCCCAGCCGCACGCCACATCCACCATTCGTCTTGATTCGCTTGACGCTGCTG	515 a.u.
GAATATGGTTATTCTGATGTTACTGGTAGTCGTTAGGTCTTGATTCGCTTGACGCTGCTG	486 a.u.
GAAAGGGAAAGCTCTGATGCACCATTAATCTGGTAGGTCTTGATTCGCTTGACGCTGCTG	528 a.u.
GAATTGCCTCGATTGCATGTGACAAAAGTGCAATAGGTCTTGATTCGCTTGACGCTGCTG	2030 a.u.
CTAACTTTATACCACCACCACATGCCATACTCATTCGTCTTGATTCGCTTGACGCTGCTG	617 a.u.
TGTACGAAGCTATATGATGATATTATAGTAGTTAGGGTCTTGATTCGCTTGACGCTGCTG	570 a.u.
CTATCTACTAAGAGTAACGTGGCTGAGAAGAGATTCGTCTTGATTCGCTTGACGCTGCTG	732 a.u.
CTACAAGAAAAAGGTGACCCACGGTGGTGGGAATTCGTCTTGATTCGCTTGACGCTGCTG	508 a.u.
CTAAAATCTATGGGTCATGTGCTCTATAATTCCTTCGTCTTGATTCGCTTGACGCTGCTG	4900 a.u.
GAATAAAAGAATAGACACGTTTAAGGTATATTTTAGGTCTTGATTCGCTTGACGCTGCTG	572 a.u.
GAATTCTCCCGCTAACACGTTTATACCCTTTCTTAGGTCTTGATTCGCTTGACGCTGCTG	576 a.u.
GAATACAACCCCGAACCCGTGCGTGGGCTATTCTAGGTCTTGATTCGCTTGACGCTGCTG	569 a.u.
GAAATGTTTATGTGTCACCTCTTGCTTGCGTCTTAGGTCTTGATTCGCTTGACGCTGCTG	542 a.u.
GAAGCTGAAAAACTGCACGAGAATTCGTGAAACTAGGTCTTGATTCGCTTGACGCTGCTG	627 a.u.
CTATTGAGATTCGAGTTTTATATGATGGCAACATTCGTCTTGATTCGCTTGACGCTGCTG	540 a.u.
CTATCTGGAAAATTCCACGAGGTCCGTATATGATTCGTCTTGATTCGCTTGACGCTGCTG	537 a.u.
GAAAGCCATAATTTACACCTCACGTACATAGTTTAGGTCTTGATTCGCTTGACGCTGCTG	546 a.u.

Series 4
Target: Transcriptional repressor CTCF (CTCF, Homo sapiens, UniProt P49711, residues 1-727, full length assumed)
Sequence of UniProt P49711 (whole entry, looked up): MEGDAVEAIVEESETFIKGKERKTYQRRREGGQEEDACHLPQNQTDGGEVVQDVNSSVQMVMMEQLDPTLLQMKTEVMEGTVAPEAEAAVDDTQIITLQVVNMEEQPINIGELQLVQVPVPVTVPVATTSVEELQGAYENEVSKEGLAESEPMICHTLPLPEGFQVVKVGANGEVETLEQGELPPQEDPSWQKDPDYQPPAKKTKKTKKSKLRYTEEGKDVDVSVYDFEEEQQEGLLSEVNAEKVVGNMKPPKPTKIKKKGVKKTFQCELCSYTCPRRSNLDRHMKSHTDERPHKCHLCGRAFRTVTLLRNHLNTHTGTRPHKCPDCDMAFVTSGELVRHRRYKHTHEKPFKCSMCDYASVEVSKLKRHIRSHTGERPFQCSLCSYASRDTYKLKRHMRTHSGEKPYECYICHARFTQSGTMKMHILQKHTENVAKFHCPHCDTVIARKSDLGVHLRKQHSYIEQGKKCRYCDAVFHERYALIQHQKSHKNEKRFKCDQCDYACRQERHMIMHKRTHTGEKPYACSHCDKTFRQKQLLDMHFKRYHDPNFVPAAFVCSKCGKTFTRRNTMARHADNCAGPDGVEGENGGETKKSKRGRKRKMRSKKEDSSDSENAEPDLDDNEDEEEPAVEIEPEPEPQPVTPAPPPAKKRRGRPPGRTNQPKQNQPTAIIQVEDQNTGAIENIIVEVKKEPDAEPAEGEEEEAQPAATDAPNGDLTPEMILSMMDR
Technique: protein-binding microarray
Form: double-stranded DNA, one strand shown
Medium: in vitro
Tested at: not given
Notes: k-mer, scored over probes, only values ≥0.25
Reading: higher = stronger binding
Oligonucleotide	E-score
ATTGTATA	0.317
AAACGGCC	0.333
ACAGTACA	0.251
ATAACATA	0.364
ATAGTATA	0.267
CATATGTA	0.266
ATAAAAAT	0.282
CGCGCAAC	0.272
TATAAGCA	0.286
CAATAACA	0.34
CTCATTAC	0.31
AAATTCAT	0.272
AACACGTA	0.271
ATAAACGC	0.258
ATAAACAT	0.392
TAAAAGTA	0.252
AAATAGTA	0.251
